Measurements collected from several papers.
A part holds a random share of what one study measured. Substitutions count along the parent as printed.
Sequence of UniProt Q9FGV1 (whole entry, looked up): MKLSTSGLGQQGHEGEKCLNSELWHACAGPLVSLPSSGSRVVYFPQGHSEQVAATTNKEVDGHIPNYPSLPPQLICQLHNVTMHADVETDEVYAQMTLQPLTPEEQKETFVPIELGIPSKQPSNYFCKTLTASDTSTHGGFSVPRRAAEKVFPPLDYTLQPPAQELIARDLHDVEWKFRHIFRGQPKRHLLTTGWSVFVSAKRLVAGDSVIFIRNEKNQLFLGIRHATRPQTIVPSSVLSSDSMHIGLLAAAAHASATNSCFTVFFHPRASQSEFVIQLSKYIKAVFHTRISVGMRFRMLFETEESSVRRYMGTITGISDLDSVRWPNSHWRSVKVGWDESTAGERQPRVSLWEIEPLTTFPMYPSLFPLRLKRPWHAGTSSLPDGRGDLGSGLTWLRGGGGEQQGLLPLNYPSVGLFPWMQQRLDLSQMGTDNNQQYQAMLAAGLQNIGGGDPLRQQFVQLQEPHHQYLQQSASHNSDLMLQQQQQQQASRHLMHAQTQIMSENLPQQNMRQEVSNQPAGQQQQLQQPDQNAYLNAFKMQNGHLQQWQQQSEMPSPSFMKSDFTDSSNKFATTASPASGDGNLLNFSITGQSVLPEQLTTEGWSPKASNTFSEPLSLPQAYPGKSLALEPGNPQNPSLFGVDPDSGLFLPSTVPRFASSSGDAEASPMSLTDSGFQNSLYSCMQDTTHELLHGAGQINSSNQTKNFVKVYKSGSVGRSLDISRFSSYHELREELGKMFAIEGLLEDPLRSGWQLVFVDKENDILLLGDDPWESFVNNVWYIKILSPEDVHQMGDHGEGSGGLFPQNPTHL
Sequence of UniProt Q9M1R4 (whole entry, looked up): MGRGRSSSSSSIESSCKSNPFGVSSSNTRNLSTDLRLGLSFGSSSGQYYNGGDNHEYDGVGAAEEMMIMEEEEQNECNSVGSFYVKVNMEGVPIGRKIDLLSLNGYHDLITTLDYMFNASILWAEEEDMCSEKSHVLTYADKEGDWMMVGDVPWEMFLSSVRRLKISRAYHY
Sequence of UniProt P35590 (whole entry, looked up): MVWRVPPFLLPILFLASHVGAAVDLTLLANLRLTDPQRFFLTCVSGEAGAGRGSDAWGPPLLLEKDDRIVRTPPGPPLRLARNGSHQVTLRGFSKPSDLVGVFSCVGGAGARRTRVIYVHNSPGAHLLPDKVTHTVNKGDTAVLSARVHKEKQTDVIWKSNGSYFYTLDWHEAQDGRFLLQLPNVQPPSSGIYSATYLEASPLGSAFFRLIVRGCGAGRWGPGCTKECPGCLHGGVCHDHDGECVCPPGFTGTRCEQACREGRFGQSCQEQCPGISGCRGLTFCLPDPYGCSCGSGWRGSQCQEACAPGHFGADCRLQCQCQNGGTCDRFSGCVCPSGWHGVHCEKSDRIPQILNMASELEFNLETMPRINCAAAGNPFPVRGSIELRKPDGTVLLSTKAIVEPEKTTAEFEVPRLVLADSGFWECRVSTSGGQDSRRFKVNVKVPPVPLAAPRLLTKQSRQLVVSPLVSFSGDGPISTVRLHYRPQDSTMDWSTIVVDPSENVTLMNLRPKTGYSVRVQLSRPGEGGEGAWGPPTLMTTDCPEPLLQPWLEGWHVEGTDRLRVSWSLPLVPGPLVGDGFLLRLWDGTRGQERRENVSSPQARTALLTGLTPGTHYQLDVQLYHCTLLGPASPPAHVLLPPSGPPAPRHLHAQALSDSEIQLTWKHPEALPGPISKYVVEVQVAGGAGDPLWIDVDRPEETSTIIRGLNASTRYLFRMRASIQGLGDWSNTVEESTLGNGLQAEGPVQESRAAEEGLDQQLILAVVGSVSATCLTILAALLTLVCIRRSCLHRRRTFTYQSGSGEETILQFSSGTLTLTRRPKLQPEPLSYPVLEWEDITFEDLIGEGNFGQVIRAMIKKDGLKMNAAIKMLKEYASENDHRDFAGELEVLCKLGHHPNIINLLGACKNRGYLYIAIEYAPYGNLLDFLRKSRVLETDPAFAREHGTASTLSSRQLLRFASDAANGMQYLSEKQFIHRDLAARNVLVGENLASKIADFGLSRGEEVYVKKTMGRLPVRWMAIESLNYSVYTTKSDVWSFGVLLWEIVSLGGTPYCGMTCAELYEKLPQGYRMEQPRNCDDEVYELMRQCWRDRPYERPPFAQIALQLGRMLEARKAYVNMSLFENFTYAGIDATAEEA
Sequence of UniProt Q9C7I9 (whole entry, looked up): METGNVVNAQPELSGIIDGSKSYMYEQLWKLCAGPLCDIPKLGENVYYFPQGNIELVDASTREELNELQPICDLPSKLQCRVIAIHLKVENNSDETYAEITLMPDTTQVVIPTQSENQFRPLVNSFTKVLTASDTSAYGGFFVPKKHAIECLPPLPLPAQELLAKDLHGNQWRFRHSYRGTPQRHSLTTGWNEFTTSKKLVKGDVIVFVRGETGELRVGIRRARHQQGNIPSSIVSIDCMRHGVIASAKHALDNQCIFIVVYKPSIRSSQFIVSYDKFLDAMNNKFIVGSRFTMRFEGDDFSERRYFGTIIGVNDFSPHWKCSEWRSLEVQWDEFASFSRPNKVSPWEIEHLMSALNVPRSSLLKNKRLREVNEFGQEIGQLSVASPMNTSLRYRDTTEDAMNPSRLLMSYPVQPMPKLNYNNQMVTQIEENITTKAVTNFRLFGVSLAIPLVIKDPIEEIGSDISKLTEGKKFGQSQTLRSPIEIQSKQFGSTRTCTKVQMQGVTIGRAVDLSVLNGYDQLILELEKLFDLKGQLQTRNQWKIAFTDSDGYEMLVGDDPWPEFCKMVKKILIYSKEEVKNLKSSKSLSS
Sequence of UniProt P11802 (whole entry, looked up): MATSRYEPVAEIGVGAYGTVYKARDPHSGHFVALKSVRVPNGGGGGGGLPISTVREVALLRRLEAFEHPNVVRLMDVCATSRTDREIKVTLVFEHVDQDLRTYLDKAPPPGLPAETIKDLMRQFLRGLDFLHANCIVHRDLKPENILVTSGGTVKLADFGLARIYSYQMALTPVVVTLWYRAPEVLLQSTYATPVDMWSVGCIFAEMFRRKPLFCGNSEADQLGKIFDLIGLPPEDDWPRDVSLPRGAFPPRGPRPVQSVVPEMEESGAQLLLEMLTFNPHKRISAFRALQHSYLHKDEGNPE
Sequence of UniProt Q9ZPY6 (whole entry, looked up): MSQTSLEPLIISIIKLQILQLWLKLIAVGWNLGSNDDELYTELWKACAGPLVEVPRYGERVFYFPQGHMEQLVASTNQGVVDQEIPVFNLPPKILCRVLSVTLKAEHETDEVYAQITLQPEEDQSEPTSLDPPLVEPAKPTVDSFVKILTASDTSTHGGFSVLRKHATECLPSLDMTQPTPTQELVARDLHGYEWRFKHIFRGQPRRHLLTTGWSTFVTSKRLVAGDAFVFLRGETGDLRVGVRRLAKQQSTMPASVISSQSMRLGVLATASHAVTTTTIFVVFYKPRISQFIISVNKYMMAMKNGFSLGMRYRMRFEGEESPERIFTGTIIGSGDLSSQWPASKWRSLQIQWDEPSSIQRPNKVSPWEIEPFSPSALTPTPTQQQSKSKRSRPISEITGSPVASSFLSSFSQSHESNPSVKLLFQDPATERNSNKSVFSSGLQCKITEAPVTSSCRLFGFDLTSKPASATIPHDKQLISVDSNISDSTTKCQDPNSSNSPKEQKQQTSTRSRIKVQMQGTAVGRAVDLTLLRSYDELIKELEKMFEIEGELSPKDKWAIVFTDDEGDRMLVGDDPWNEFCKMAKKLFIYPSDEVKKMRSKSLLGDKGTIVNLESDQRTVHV
Sequence of UniProt Q9C8N7 (whole entry, looked up): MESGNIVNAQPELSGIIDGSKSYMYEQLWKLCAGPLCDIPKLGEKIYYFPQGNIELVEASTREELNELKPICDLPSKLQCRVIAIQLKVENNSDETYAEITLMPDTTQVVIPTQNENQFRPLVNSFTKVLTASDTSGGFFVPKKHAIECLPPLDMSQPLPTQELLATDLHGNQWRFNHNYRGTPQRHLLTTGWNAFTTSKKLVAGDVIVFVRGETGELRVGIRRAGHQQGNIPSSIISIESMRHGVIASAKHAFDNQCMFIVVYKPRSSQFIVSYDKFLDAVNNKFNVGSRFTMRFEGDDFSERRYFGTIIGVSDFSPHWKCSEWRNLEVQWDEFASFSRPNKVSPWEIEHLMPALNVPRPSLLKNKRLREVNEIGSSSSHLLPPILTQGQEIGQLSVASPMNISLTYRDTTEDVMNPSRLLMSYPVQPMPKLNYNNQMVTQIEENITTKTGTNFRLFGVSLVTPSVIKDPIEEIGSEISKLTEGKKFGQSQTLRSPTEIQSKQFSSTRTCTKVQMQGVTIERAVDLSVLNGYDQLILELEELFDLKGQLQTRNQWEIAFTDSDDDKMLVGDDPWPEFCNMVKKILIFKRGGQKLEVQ

Block 1
Target: FOSL2, bZIP domain (human)
Technique: DHFR protein complementation
Sample: yeast
Notes: single substitutions, most at no-binding floor
Relative to: wild-type JUN-FOS pair
Reading: higher = stronger binding
Starting sequence: JUN, bZIP domain (human); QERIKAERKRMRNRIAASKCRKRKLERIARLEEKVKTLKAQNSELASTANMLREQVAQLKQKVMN; partner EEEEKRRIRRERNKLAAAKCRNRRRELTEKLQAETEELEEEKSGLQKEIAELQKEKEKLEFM
Variant	binding fitness [natural log]
A40G	-0.0595
E44I	-0.0586
Q41L	-0.0484
Q58P	-1.34
R53A	-0.189
Q41N	-0.153
K39Y	-0.551
T48G	-0.634

Block 2
Molecule: B1 (IAA1)
Technique: two-hybrid
Reading: higher = firmer interaction
B1: IAA1 (Arabidopsis thaliana, UniProt P49677); chain MEVTNGLNLKDTELRLGLPGAQEEQQLELSCVRSNNKRKNNDSTEESAPPPAKTQIVGWPPVRSNRKNNNNKNVSYVKVSMDGAPYLRKIDLKMYKNYPELLKALENMFKFTVGEYSEREGYKGSGFVPTYEDKDGDWMLVGDVPWDMFSSSCQKLRIMKGSEAPTAL
partner	notes	relative to	positive tests
IAA9 (Arabidopsis thaliana, UniProt Q38827)	–	out of 2 tests	2
IAA30 (Arabidopsis thaliana, UniProt Q9M1R4)	weak activation fusion	out of 4 tests	2
ARF11 500-622 (Arabidopsis thaliana, UniProt Q9ZPY6)	–	out of 4 tests	1
ARF22 498-598 (Arabidopsis thaliana, UniProt Q9C8N7)	–	out of 4 tests	1
ARF20 484-590 (Arabidopsis thaliana, UniProt Q9C7I9)	–	out of 4 tests	1
ARF8 699-811 (Arabidopsis thaliana, UniProt Q9FGV1)	–	out of 4 tests	3

Block 3
Structure (SMILES): CCCOc1ccc([C@@H]2[C@@H](C(=O)O)[C@H](c3ccc4c(c3)OCO4)CN2CC(=O)Nc2c(CC)cccc2CC)cc1
Observed: cell-free assay
Technique: competition with immobilised ligand
Tested at: 1 µM
target	remaining binding
EGFR (Homo sapiens, UniProt P00533, del752-759)	100%
Tyrosine-protein kinase ABL1, phosphorylated (ABL1, Homo sapiens, UniProt P00519, M351T)	80%
Cyclin-dependent kinase 4, with cyclin D3 (CDK4, Homo sapiens, UniProt P11802)	96%
TIE1 (Homo sapiens, UniProt P35590)	96%

Mixed results
Compound	sample	quantity	value
CCC[C@@H]1NC(=O)CSC[C@@H](C(=O)OCC)N(C)C(=O)[C@H](CC(C)C)NC(=O)[C@H](C)N(C)C(=O)[C@H](CC(C)C)NC(=O)[C@H](C)N(C)C(=O)[C@H]2CCCN2C(=O)[C@H](CC(C)C)NC(=O)CN(CCC)C1=O	hydrocarbon/water	logD	2.04

Some of these lines once more (block 1):
Variant	binding fitness [natural log]
A40G	-0.0595
E44I	-0.0586
Q41L	-0.0484
